Measurements collected from several papers.
Compare with care: the assays were run in different laboratories. ± gives the spread as reported.

SMILES = C[C@@H](NC(=O)N1C(=O)[C@H](Cc2ccnc(N)c2)[C@H]1C(=O)O)C1CCCCC1; system = healthy adult Chinese volunteers; setting = continuous intravenous infusion, 0.3 mg/kg/h, 5-day infusion, CTCAE 5.0 grading; measurement = incidence of urine leukocyte esterase positive; result = 12.5%
SMILES = CO[C@H]1C[C@@H]2CC[C@@H](C)[C@@](O)(O2)C(=O)C(=O)N2CCCC[C@H]2C(=O)O[C@H]([C@H](C)C[C@@H]2CC[C@@H](OC(=O)NCCOCCOCCOCCOCCOCCOCCOCCOCCC(=O)N3CCc4cc(Cn5nc(-c6ccc7oc(N)nc7c6)c6c(N)ncnc65)ccc4C3)[C@H](OC)C2)C[C@@H](O)[C@H](C)/C=C(\C)[C@@H](O)[C@@H](OC)C(=O)[C@H](C)C[C@H](C)/C=C/C=C/C=C/1C; system = patients with advanced solid tumours; setting = intravenous, 8 mg weekly, grade 3 or higher; measurement = decreased appetite incidence; result = 0%
SMILES = CC(C)[C@H](N)C(=O)NCCCS(=O)(=O)O; system = human, plasma; setting = oral, 265 mg twice daily, week 65, steady state, 8 h sampling; measurement = terminal half-life; result = 72 min
SMILES = CCc1ccc(CC/C=C/c2ccc3c(c2)C(=O)CC3)cc1; system = Sprague-Dawley rat, male; setting = oral, 450 mg/kg/day, 14 days; measurement = Globulin; result = 19.1 g/L
SMILES = O.O.O.O.O.O.[Cl-].[Cl-].[Co+2]; system = rat male, urine; setting = oral, 10 mg/kg single, day 1; measurement = cobalt in urine; result = 9790 µg/L
SMILES = CC(C)[C@@H]1NC(=O)CNC(=O)[C@H](CC(N)=O)NC(=O)[C@H](CCCNC(=N)N)NC(=O)[C@H](Cc2ccc(O)cc2)NC(=O)[C@H](C(C)C)NC(=O)[C@@H](NC(=O)[C@@H](NC(=O)[C@H](CC(N)=O)NC(=O)[C@H](Cc2c[nH]c3ccccc23)NC(=O)[C@H](C)NC(=O)[C@H](Cc2ccccc2)NC(=O)CN)C(C)C)CSSC[C@@H](C(=O)N[C@@H](Cc2cnc[nH]2)C(=O)N[C@@H](CCCNC(=N)N)C(=O)N[C@@H](CCCNC(=N)N)C(=O)N[C@@H](C)C(=O)N[C@@H](CC(N)=O)C(N)=O)NC(=O)[C@H](C(C)C)NC(=O)[C@H](CCCNC(=N)N)NC1=O; system = ICR mice, blood; setting = intraperitoneal, 10 mg/kg, day 5; measurement = lymphocytes; result = 75 ± 1.2%
SMILES = CC(C)(O)c1cc(Nc2cc(Oc3cn(C4CC4)nc3C3CCOCC3)ccn2)ccn1; assay = Constipation; system = advanced cancer patients, dose escalation; setting = oral, dose not given, 2 weeks on/off, all causality grade ≥3; measurement = treatment-emergent adverse events; result = 3%
SMILES = Cc1ccccc1C(=O)NN=Cc1ccc(O)c(Br)c1; system = normal C3H/HeN mouse, plasma; setting = intraperitoneal, 1.6 mg/kg; measurement = Cmax; result = 112 ng/mL
SMILES = C[C@@H]1NC(=O)[C@H](CCCCNC(=O)CO/N=C/C(=O)NCCCC[C@@H]2NC(=O)[C@@H](Cc3ccccc3)NC(=O)[C@H](CC(=O)O)NC(=O)CNC(=O)[C@H](CCCNC(=N)N)NC2=O)NC(=O)CNC(=O)[C@@H]2CCCN2C(=O)[C@H](CCCCNC(=O)CO/N=C/C(=O)NCCCC[C@@H]2NC(=O)[C@@H](Cc3ccccc3)NC(=O)[C@H](CC(=O)O)NC(=O)CNC(=O)[C@H](CCCNC(=N)N)NC2=O)NC(=O)[C@H](CCCCNC(=O)CCNC(=O)CCNC(=O)CCNC(=O)[C@H](CCCCN)NC(=O)[C@H](Cc2ccccc2)NC(=O)CNC(=O)CN2CCCNCCNCCCNCC2)NC(=O)[C@H](CCCCNC(=O)CO/N=C/C(=O)NCCCC[C@@H]2NC(=O)[C@@H](Cc3ccccc3)NC(=O)[C@H](CC(=O)O)NC(=O)CNC(=O)[C@H](CCCNC(=N)N)NC2=O)NC(=O)CNC(=O)[C@@H]2CCCN2C(=O)[C@H](CCCCNC(=O)CO/N=C/C(=O)NCCCC[C@@H]2NC(=O)[C@@H](Cc3ccccc3)NC(=O)[C@H](CC(=O)O)NC(=O)CNC(=O)[C@H](CCCNC(=N)N)NC2=O)NC1=O [copper-64 labelled]; system = normal mice, stomach; setting = intravenous, 0.74 MBq, 3 h post-injection; measurement = tissue uptake; result = 2.05 ± 0.33 %ID/g
SMILES = CCC[C@@](N)(CO)CCc1ccc(OCCCCCC(C)C)cc1; system = dog, male hounds, plasma; setting = oral capsule, 10 mg/kg, geometric mean; measurement = AUC(0-inf); result = 7.48 µM·h
SMILES = Cn1ncc(-c2nc(N[C@H]3CC[C@H](N)CC3)ncc2Cl)c1CC1CC1; assay = HPLC-MS/MS; system = patients, plasma; setting = oral, 8 mg, day 5; measurement = AUC; result = 937 ng·h/mL
SMILES = CC(=O)c1c(C)c2cnc(Nc3ccc(C4CCN(CCS(C)(=O)=O)CC4)cn3)nc2n(C2CCCC2)c1=O; system = human patients, plasma; setting = oral, 75 mg twice daily, day 21 multiple doses, together with: fulvestrant; measurement = AUC(0-t); result = 1200 ng·h/mL
SMILES = CCCSc1ccc2nc(NC(=O)OC)[nH]c2c1; system = mouse, blood; setting = oral, 50 mg/kg, tolerability, mean; measurement = alanine aminotransferase; result = 0.44 U/L
SMILES = O=C(Nc1ccccc1)C1CCN(C(=O)Oc2cccnc2)CC1; system = healthy women; setting = oral, 100 mg, 9 days; measurement = adverse event Anxiety; result = 23.1%
SMILES = O=S(=O)(Nc1ccccc1)c1ccc(NC(=S)Nc2ccccc2)cc1; system = mouse, male, blood; setting = oral, 20 mg/kg daily, 14 days; measurement = mean platelet volume; result = 4.48 fL
SMILES = O=C1Nc2cc3[nH]nc(-c4ccncc4)c3cc2CN1Cc1ccccc1; assay = item: Asthenia; system = patients with advanced solid tumours; setting = intravenous, dose not given; measurement = patients with grade ≥3 TEAE; result = 7%
SMILES = COc1ccnc(C(=O)N[C@H]2COC(=O)[C@H](Cc3ccccc3)[C@@H](OC(=O)C(C)C)[C@H](C)OC2=O)c1OCOC(=O)C(C)C; assay = carcinogenicity; system = mouse; setting = 18 month, highest dose tested; measurement = NOAEL; result = 32.1 mg/kg/day
SMILES = CCN1[C@@H](C(=O)NC23CCC(C(=O)O)(CC2)CC3)[C@H](c2cccc(Cl)c2F)[C@]2(C(=O)Nc3cc(Cl)ccc32)C12CCCCC2; system = patients with advanced solid tumours; setting = oral, 150 mg; measurement = nausea/vomiting incidence; result = 62.5%
SMILES = Cn1cc(-c2nc(N[C@@H]3CCCC[C@@H]3N)c(F)c3c2C(=O)NC3)cn1; assay = item: Subarachnoid haemorrhage; system = patients with relapsed or refractory AML; setting = oral, dose not given, all doses; measurement = hemorrhagic adverse events; result = 2 number of patients
SMILES = COc1cc2c(Oc3ccc4[nH]c(C)cc4c3F)ccnc2cc1OCC1(N)CC1; system = paediatric recurrent refractory sarcoma; setting = 10 mg; measurement = grade 1 or 2 hand-foot syndrome; result = 50%
SMILES = O=[N+]([O-])c1ccc2c(c1)S(=O)(=O)C=C2; system = male C57BL/6 mice, blood; setting = intraperitoneal, 20 mg/kg, day 8, group average; measurement = haemoglobin; result = 187 g/L
SMILES = CCc1nc(C(N)=O)c(Nc2ccc(N3CCC(N4CCN(C)CC4)CC3)c(OC)c2)nc1NC1CCOCC1; system = patients, plasma; setting = oral, 200 mg once daily, cycle 1 day 15, median; measurement = Cmin; result = 1170 ng/mL
SMILES = C[C@]1(CO)Cc2ncn(-c3ccc(C#N)c(Cl)c3)c2C(=O)O1; system = human; setting = oral, 10 mg, fasted, adjusted geometric mean; measurement = Cmax; result = 432 nM
SMILES = C[C@@H]1OC(=O)NN=C1c1ccc(-c2ccc(F)cc2)c(C(F)(F)F)c1; assay = phase I trial, item: Nausea all grades; system = human patients; setting = 10 mg loading then 0.5 mg daily; measurement = patients with adverse event; result = 100%
SMILES = C[C@]1(O)C[C@@](N)(c2ccc(-c3nc4n(c3-c3ccccc3)COc3ccncc3-4)cc2)C1; system = human, advanced or metastatic solid tumours; setting = 28 mg intermittent, phase I dose escalation; measurement = patients with grade ≥3 TEAE; result = 100%
